Published values collected from several papers.
Protocols differ between the studies behind these lines.

| SMILES | organism | test | test system | setting | MIC |
| --- | --- | --- | --- | --- | --- |
| CC[C@H](C)[C@H](NC(=O)[C@H](CCCCN)NC(=O)[C@H](CCCCN)NC(=O)[C@H](Cc1ccccc1)NC(=O)[C@H](Cc1ccccc1)NC(=O)[C@H](CCCCN)NC(=O)[C@H](CCCCN)NC(=O)[C@H](Cc1ccccc1)NC(=O)[C@H](CCCNC(=N)N)NC(=O)[C@@H](N)CCCCN)C(=O)N[C@@H](CCCCN)C(=O)N[C@@H](CCCCN)C(=O)N[C@@H](CO)C(=O)N[C@H](C(=O)N[C@@H](CCCCN)C(=O)N[C@@H](CCCCN)C(=O)N[C@@H](CCCNC(=N)N)C(=O)N[C@H](C(=O)N[C@@H](CCCCN)C(=O)N[C@@H](CCCCN)C(=O)N[C@@H](CC(C)C)C(=O)N[C@@H](Cc1ccccc1)C(=O)N[C@@H](CCCCN)C(=O)N[C@@H](CCCCN)C(=O)N1CCC[C@H]1C(=O)N[C@@H](CCCNC(=N)N)C(=O)N[C@H](C(=O)N[C@H](C(=O)N1CCC[C@H]1C(=O)N[C@H](C(=O)N[C@@H](CO)C(=O)N[C@H](C(=O)N1CCC[C@H]1C(=O)N[C@@H](Cc1ccccc1)C(=O)O)[C@@H](C)CC)[C@@H](C)CC)[C@@H](C)CC)C(C)C)C(C)C)C(C)C | Pseudomonas aeruginosa | – | P1 | 20 h, together with: 200 mM NaCl | 4 µg/mL |
| CC(=O)N[C@@H](CC(C)C)C(=O)N[C@H]1CSSC[C@@H](C(=O)N2CCC[C@H]2C(N)=O)NC(=O)[C@H](CCCCN)NC(=O)[C@H](C(C)C)NC(=O)[C@H](CCCCN)NC(=O)CNC(=O)[C@H](CC(C)C)NC(=O)[C@H](Cc2ccccc2)NC(=O)[C@H](CCCCN)NC(=O)[C@H](CC(C)C)NC(=O)[C@H](CCC(=O)O)NC(=O)[C@H](Cc2ccccc2)NC(=O)[C@H](CCCNC(=N)N)NC(=O)[C@H](CCCCN)NC(=O)[C@H](CC(C)C)NC(=O)[C@H](CC(=O)O)NC(=O)[C@@H]2CCCN2C(=O)[C@H](CCCCN)NC(=O)[C@H](C(C)C)NC(=O)[C@H](CCCCN)NC(=O)[C@H](CCCCN)NC(=O)[C@H](CCCCN)NC1=O | Vibrio alginolyticus | broth dilution | – | 24 h | > 40 µM |
| CC(C)CCCCCCCCC/C=C/C(=O)N[C@@H](CC(N)=O)C(=O)N[C@H]1CNC(=O)[C@@H]2CCCN2C(=O)[C@H](C(C)C)NC(=O)[C@@H](CN)NC(=O)CNC(=O)[C@H](CC(=O)O)NC(=O)CNC(=O)[C@H](CC(=O)O)NC(=O)[C@H](CC(=O)O)NC(=O)[C@H]2CCCCN2C1=O | Enterococcus | broth microdilution | VRE 155, Mueller-Hinton broth, Mg2+ 10 mg/L | 16 h, together with: Ca2+ 1.0 mM | 8 µg/mL |
| CC1(C)C(NC(=O)C(=NOC2(C(=O)O)CC2)c2csc(N)n2)C(=O)N1OS(=O)(=O)O (centres unmarked) | Klebsiella pneumoniae | – | ATCC 1705, ESBL, NDM and KPC | compound alone | 2 µg/mL |
| CC[C@H](C)[C@@H]1NC(=O)[C@@H]([C@@H](C)O)NC(=O)CNC(=O)[C@H](CC(=O)O)NC(=O)CNC(=O)[C@H](CC(=O)O)NC(=O)CNC(=O)[C@H]2CCCCN2C(=O)[C@@H](NC(=O)[C@H](CC(=O)O)NC(=O)/C=C/CCCCCCCCCC(C)C)CNC(=O)[C@@H]2CCCN2C1=O | Staphylococcus aureus | broth microdilution | VISA LIM strain 2, Mueller-Hinton broth, Mg2+ 10 mg/L | 16 h, together with: Ca2+ 5 mM | 4 µg/mL |
| CC(=O)N[C@@H](CC(C)C)C(=O)N[C@H]1CSSC[C@@H](C(=O)N2CCC[C@H]2C(N)=O)NC(=O)[C@H]([C@@H](C)O)NC(=O)[C@H](C(C)C)NC(=O)[C@H]([C@@H](C)O)NC(=O)CNC(=O)[C@H](CC(C)C)NC(=O)[C@H](Cc2ccccc2)NC(=O)[C@H](Cc2ccc(O)cc2)NC(=O)[C@H](CC(C)C)NC(=O)[C@H](CCCCN)NC(=O)[C@H](Cc2ccccc2)NC(=O)[C@H](CCCNC(=N)N)NC(=O)[C@H](CCCCN)NC(=O)[C@H](CC(C)C)NC(=O)[C@H](CCCCN)NC(=O)[C@@H]2CCCN2C(=O)[C@H](CCCCN)NC(=O)[C@H](C(C)C)NC(=O)[C@H](CC(N)=O)NC(=O)[C@H](Cc2ccc(O)cc2)NC(=O)[C@H]([C@@H](C)O)NC1=O | Corynebacterium glutamicum | broth dilution | CGMCC strain | 24 h | < 1.25 µM |
| CC(C)Oc1ccc(B(O)O)c(F)n1 | Klebsiella aerogenes | bacterial growth | AmpC overproducer clinical isolate | without cefotaxime | 2050 µg/mL |
| C#CCOc1ccc(CN[C@@]2(C)C[C@H](O[C@H]3[C@H](Oc4c5cc6cc4Oc4ccc(cc4Cl)[C@@H](O)[C@@H](NC(=O)[C@@H](CC(C)C)NC)C(=O)N[C@@H](CC(N)=O)C(=O)N[C@H]6C(=O)N[C@H]4C(=O)N[C@H](C(=O)N[C@H](C(=O)N[C@@H](CCCNC(=N)N)C(N)=O)c6cc(O)cc(O)c6-c6cc4ccc6O)[C@H](O)c4ccc(c(Cl)c4)O5)O[C@H](CO)[C@@H](O)[C@@H]3O)O[C@@H](C)[C@H]2O)cc1OC | Enterococcus faecalis | broth microdilution | vancomycin-resistant | – | 18 µM |
| [O-][N+]1=C(c2ccccc2)C2=NCCCN2c2ncccc21 | Bacteroides fragilis | – | – | – | 0.06 to 0.125 µg/mL |
| CCCCCCCC(=O)NCCCC[C@H](NC(=O)CCCCCCC)C(=O)N[C@@H](CCCCNC(=O)CCCCCCC)C(=O)NCC(=O)NCC(=O)NCC(=O)N[C@@H](CS)C(=O)N[C@@H](CCCNC(=N)N)C(=O)N[C@@H](CCCCN)C(=O)N1CCC[C@H]1C(=O)N[C@@H](CS)C(=O)N[C@@H](CCCNC(=N)N)C(=O)N[C@@H](CCCCN)C(=O)N1CCC[C@H]1C(=O)N[C@@H](CS)C(=O)N[C@@H](CCCNC(=N)N)C(=O)N[C@@H](CCCCN)C(=O)N1CCC[C@H]1C(=O)N[C@@H](CS)C(=O)N[C@@H](CCCNC(=N)N)C(=O)N[C@@H](CCCCN)C(=O)N1CCC[C@H]1C(N)=O | Candida parapsilosis | broth microdilution | CGMCC 2.399, RPMI-1640 | 48 h, 30 °C | 16 µM |
| O=[N+]([O-])c1ccc(C2=[N+]([O-])c3ccccc3N3CCCN=C23)cc1 | Bacteroides spp. and Parabacteroides distasonis | – | – | – | 0.06 to 0.125 µg/mL |
| CN[C@H](CC(C)C)C(=O)N[C@H]1C(=O)N[C@@H](CC(N)=O)C(=O)N[C@H]2C(=O)N[C@H]3C(=O)N[C@H](C(=O)N[C@H](C(=O)O)c4cc(O)cc(O)c4-c4cc3ccc4O)[C@H](O)c3ccc(c(Cl)c3)Oc3cc2cc(c3O[C@@H]2O[C@H](CO)[C@@H](O)[C@H](O)[C@H]2O[C@H]2C[C@](C)(NCc3ccc(OCc4cn(CC(=O)N[C@H](C(=O)N[C@@H](CCN)C(=O)N[C@H]5CCNC(=O)[C@H]([C@@H](C)O)NC(=O)[C@H](CCN)NC(=O)[C@H](CCN)NC(=O)[C@H](CC(C)C)NC(=O)[C@@H](CC(C)C)NC(=O)[C@H](CCN)NC5=O)[C@@H](C)O)nn4)c(OC)c3)[C@H](O)[C@H](C)O2)Oc2ccc(cc2Cl)[C@H]1O | Enterococcus faecalis | broth microdilution | vancomycin-resistant, tryptic soy broth | 20 to 24 h, 37 °C, 0.002% polysorbate 80 | 64 µg/mL |
| C[N+]1=C2C(c3ccc(Cl)cc3)=[N+]([O-])c3ccccc3N2CCC1 | Bacteroides spp. and Parabacteroides distasonis | – | – | – | 2 to 8 µg/mL |
| CC(=O)N[C@@H](CC(C)C)C(=O)N[C@H]1CSSC[C@@H](C(=O)N2CCC[C@H]2C(N)=O)NC(=O)[C@H]([C@@H](C)O)NC(=O)[C@H](C(C)C)NC(=O)[C@H]([C@@H](C)O)NC(=O)[C@H](CCCCN)NC(=O)[C@H](CC(C)C)NC(=O)[C@H](Cc2ccccc2)NC(=O)[C@H](Cc2ccc(O)cc2)NC(=O)[C@H](CC(C)C)NC(=O)[C@H](CCCCN)NC(=O)[C@H](Cc2ccccc2)NC(=O)[C@H](CCCNC(=N)N)NC(=O)[C@H](CCC(N)=O)NC(=O)[C@H](CC(C)C)NC(=O)[C@H](CCCCN)NC(=O)[C@@H]2CCCN2C(=O)[C@H](CCCCN)NC(=O)[C@H](C(C)C)NC(=O)[C@H](CC(N)=O)NC(=O)[C@H](Cc2ccc(O)cc2)NC(=O)[C@H]([C@@H](C)O)NC1=O | Vibrio alginolyticus | broth dilution | – | 24 h | > 40 µM |
| CCCCCCCCCC(=O)NCCCC[C@H](NC(=O)CCCCCCCCC)C(=O)N[C@@H](CCCCNC(=O)CCCCCCCCC)C(=O)NCC(=O)NCC(=O)NCC(=O)N[C@@H](CS)C(=O)N[C@@H](CCCNC(=N)N)C(=O)N[C@@H](CCCCN)C(=O)N1CCC[C@H]1C(=O)N[C@@H](CS)C(=O)N[C@@H](CCCNC(=N)N)C(=O)N[C@@H](CCCCN)C(=O)N1CCC[C@H]1C(N)=O | Candida parapsilosis | broth microdilution | CGMCC 2.399, RPMI-1640 | 48 h, 30 °C | 32 µM |
| COc1ccc(C2=[N+]([O-])c3ccccc3N3CCCN=C23)cc1 | Bacteroides spp. and Parabacteroides distasonis | – | – | – | 0.5 to 2 µg/mL |
| CCCCCCCCCCCCCC(=O)N[C@H]1C(=O)N[C@@H](CN)C(=O)N[C@@H](CO)C(=O)N[C@@H](Cc2ccc(O)cc2)C(=O)O[C@H]1C | Staphylococcus aureus | – | SH1000 | together with: menaquinone-4, molar ratio 1 | 2 µg/mL |
